Measurements of several laboratories.
Each numbered part is a random draw from the data of one study; scales do not carry over between parts.
UniProt P34947, sequence (whole entry, looked up): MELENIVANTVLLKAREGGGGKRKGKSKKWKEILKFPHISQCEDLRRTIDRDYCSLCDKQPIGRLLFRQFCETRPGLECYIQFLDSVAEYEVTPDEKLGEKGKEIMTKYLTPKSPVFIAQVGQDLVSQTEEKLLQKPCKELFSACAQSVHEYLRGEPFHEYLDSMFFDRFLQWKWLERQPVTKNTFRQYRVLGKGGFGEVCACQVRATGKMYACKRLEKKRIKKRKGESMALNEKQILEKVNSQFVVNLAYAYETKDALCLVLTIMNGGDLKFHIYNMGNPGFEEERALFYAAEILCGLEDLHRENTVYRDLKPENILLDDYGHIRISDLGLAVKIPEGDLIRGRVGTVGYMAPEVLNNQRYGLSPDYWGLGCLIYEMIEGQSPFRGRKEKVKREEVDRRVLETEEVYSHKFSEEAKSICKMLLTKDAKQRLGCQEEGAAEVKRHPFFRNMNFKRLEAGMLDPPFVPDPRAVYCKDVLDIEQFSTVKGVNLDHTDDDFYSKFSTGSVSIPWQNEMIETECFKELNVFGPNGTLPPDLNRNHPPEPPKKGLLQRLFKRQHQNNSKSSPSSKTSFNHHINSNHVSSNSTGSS

Block 1 — technique: protein-binding microarray; form: hairpin DNA; matrix: in vitro; concentration: not given; baseline: not given; direction: higher = stronger binding
Target: Homeobox protein Hox-C11, full length (HOXC11, Homo sapiens, UniProt O43248, residues 1-304)
UniProt O43248, sequence (whole entry, looked up): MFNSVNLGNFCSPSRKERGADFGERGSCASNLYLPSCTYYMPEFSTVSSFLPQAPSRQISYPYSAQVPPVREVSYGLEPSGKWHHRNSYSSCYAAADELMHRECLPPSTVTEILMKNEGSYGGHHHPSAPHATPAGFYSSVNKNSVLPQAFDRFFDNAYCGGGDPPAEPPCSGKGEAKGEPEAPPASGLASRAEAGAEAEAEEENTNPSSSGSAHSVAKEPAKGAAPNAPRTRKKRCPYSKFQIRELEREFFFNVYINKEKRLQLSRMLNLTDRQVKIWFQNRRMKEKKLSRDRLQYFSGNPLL
Setting: whole hairpin DNA, median over replicate spots
`GAGGCCAGGTCGTAACGGCCTCCTGGCCGTTACGACCTGGCCTCACACTC (5mC at 16 28)` has a median fluorescence of 11100 a.u.
The median fluorescence of `GAGGCCAGGTCGTTACGGCCTCCTGGCCGTAACGACCTGGCCTCACACTC` is reported as 10600 a.u.
`GAGGCCTGGTCGTTAAAGCCTCCTGGCTTTAACGACCAGGCCTCACACTC` gave a median fluorescence of 10200 a.u.
With `GAGGCCAGGTCGTAAAAGCCTCCTGGCTTTTACGACCTGGCCTCACACTC (5mC at 36)` the median fluorescence was 11200 a.u.
`GAGGCCAGGTCGTACGAGCCTCCTGGCTCGTACGACCTGGCCTCACACTC (5mC at 15)` has a median fluorescence of 9850 a.u.
`GAGGCCAGGTCGTTAAAGCCTCCTGGCTTTAACGACCTGGCCTCACACTC (5mC at 33)` has a median fluorescence of 10600 a.u.
The median fluorescence of `GAGGCCAGGTCGCGAAAGCCTCCTGGCTTTCGCGACCTGGCCTCACACTC (5mC at 13 31)` is reported as 10400 a.u.
`GAGGCCACGTCGTTAAAGCCTCCTGGCTTTAACGACGTGGCCTCACACTC (5mC at 8)` has a median fluorescence of 8810 a.u.

Block 2 — technique: protein-binding microarray; form: double-stranded DNA, one strand shown; matrix: in vitro; concentration: not given; direction: higher = stronger binding
Target: Protein C-ets-1 (ETS1, Homo sapiens, UniProt P14921, residues 1-441, full length assumed)
Setting: k-mer, scored over probes, only values ≥0.25
Construct (chain): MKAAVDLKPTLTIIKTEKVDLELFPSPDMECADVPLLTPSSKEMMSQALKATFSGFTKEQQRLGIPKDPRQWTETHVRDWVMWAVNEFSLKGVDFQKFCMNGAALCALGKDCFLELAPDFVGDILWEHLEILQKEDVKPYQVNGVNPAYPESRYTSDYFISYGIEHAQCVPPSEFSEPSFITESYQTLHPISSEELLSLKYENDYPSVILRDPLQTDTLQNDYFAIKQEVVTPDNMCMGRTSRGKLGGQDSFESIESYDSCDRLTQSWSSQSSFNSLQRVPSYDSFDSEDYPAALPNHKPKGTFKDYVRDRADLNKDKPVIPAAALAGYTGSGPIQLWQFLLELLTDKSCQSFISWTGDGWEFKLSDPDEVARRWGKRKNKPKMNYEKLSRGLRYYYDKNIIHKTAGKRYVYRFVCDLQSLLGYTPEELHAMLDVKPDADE
For `TCACGGAA`, the E-score was 0.259.
`ACCGGTGC` has an E-score of 0.279.
`CGCTTCCC` has an E-score of 0.393.
With `CGGAAGAC` the E-score was 0.41.
`ATATATCC` has an E-score of 0.356.
With `GGAAGCCA` the E-score was 0.432.
With `CCTTCCGC` the E-score was 0.46.
The E-score of `GGAAAAAA` is reported as 0.273.

Block 3 — technique: RNA Bind-n-Seq; form: RNA; matrix: in vitro; concentration: 1 µM; setting: whole 134-nt RNA, ends assumed; together with: 150 mM KCl; baseline: input library; direction: higher = stronger binding
Target: Ras GTPase-activating protein-binding protein 1, RRM domain (G3BP1, Homo sapiens, UniProt Q13283)
UniProt Q13283, sequence (whole entry, looked up): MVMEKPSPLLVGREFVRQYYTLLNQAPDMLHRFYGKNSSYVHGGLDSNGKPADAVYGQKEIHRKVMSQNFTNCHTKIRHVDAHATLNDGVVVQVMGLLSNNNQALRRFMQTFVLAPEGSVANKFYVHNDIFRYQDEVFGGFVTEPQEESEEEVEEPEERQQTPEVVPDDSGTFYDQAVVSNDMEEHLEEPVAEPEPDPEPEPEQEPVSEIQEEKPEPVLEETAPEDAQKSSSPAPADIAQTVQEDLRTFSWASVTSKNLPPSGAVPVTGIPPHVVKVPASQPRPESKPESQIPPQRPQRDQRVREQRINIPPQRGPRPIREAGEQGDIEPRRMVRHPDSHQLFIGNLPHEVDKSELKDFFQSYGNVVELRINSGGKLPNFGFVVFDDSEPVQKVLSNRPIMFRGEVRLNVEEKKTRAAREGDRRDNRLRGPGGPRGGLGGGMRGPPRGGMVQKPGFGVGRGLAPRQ
All sequences stand within: GGGAGUUCUACAGUCCGACGAUC … UGGAAUUCUCGGGUGUCAAGG
For `UCAAGUCCUGUGCUACACAUCGUAUGUACCGAAUCGGGAAAGGGAAAGGAAAGGAAAGUAUUAUGUUACGCCGUUCGGAUCUGCACUUCC`, the log2 enrichment was -0.256.
`GUCCUGUGCUACACAUCGUAUGUACCGAAUCGGGUUUUUUUGGGAAAAAGGGAAAGGGAAAGUAUUAUGUUACGCCGUUCGGAUCUGCAC` gave a log2 enrichment of -0.0885.
The log2 enrichment of `GUCCUGUGCUACACAUCGUAUGUACCGAAUCGGGAGGGAAAAAAAGGGAAAAAAAGGGAAAGUAUUAUGUUACGCCGUUCGGAUCUGCAC` is reported as 0.438.
`UUGCAGCAACUGCUACCAGCCUCCCAGUCCACACAGCUGCCAUGCUCAAGUUCCCCUCAGGAGACCACCCAGUCUCGCCCUAUGCCGCCG` has a log2 enrichment of -0.158.
The log2 enrichment of `UUGGCGCAUGCGCCUAAAGCUGACGGGUUUGAAAUGGCUUCGAUGUUAGCCGGGACCCGACUCAGGUGAAGGUCUGGUCCCCGUAGUUGG` is reported as -0.453.
`UGGGAGGUUGAUUUUGUUUAUUUUUUUAGCUCAUUUCCAGGGGUGGGAAUUUUUUUUUAAUAUGUGUCAUGAAUAAAGUUGUUUUUGAAA` has a log2 enrichment of 1.76.
The log2 enrichment of `AGUUCUAUCUCUGGGGUGACUGCCGCAUAUAACCGAGAACAGCUGUGGCUGGCCAAUGAAGGCCUGAUCACCAGGCUGCAGGCUCGCUGC` is reported as -0.0885.
With `UCAAGUCCUGUGCUACACAUCGUAUGUACCGAAUCGGGCCCGGGCCCGGCCCGGGAAAGUAUUAUGUUACGCCGUUCGGAUCUGCACUUC` the log2 enrichment was -0.592.

Other studies, line by line
`Nc1nc(Nc2ccc(S(N)(=O)=O)cc2)nn1C(=O)c1c(F)cccc1F` has a remaining activity of 85.9% (G protein-coupled receptor kinase 5 (GRK5, Homo sapiens, UniProt P34947); enzyme activity, inhibitor; 0.5 µM; baseline: control).

Excerpt of the above (block 1):
`GAGGCCACGTCGTTAAAGCCTCCTGGCTTTAACGACGTGGCCTCACACTC (5mC at 8)` has a median fluorescence of 8810 a.u.
`GAGGCCAGGTCGTACGAGCCTCCTGGCTCGTACGACCTGGCCTCACACTC (5mC at 15)` has a median fluorescence of 9850 a.u.
With `GAGGCCAGGTCGTAAAAGCCTCCTGGCTTTTACGACCTGGCCTCACACTC (5mC at 36)` the median fluorescence was 11200 a.u.
